Assay results of several laboratories.
Numbered parts are unrelated; each lists some results of a single study.

Study 1
Target: RNA binding protein fox-1 homolog 2, RRM domain, GST-SBP tag (RBFOX2, Homo sapiens, UniProt O43251-10, residues 100-194)
Technique: RNA Bind-n-Seq
Molecule type: RNA
Matrix: in vitro
Tested at: 365 nM
Notes: natural RNA segment, single round, ends assumed
Baseline: no-protein control
Direction: higher = stronger binding
Constant ends, left off below: GGGAGUUCUACAGUCCGACGAUC … UGGAAUUCUCGGGUGCCAA
Construct (chain): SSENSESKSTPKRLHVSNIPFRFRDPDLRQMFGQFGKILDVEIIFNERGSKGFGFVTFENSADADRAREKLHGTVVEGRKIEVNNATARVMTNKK
Sequence | RBNS enrichment (R)
UGAGCCAUCGAUAAGCCCCUAAAAUGCGGAUUAUAAAAUUGCCAAAUAUCCUUUCUCAUGGAAGUGCAUACCUGCGUGUGGAGAAGCUGAGGAGUGAAAACCAUGCAAGU | 0.402
GCUAUCAUGGUUGUGUUAAUCGAUUGUGGGGAUGAAAUGUCAUUGUGUAUGGAAGGCGGGGCUCAUGGCUGAUUGGCAAUAAAAUGGCGGCUGCCGUUGUCAUUGUCUCC | 0.979
CAUGAAUGAAAUUAAUUCUGUCCAAGCCAGCAUGGUGGCUUCAUAUUAAGUAGUAACAGAAGUCUGAACAAUUGGAUAAAUUUGACUUCCAAGACAGCUAAACUUUUCAA | 15.1
AACCCUGGCUGGACUGGAGCUCAGUGUAUAGACCAGGCUAGUCUCAAACUCUGCCUCUUCCUCCCAAGUGCUGGGAUUAAGGGCAGGUACCAUAGUGCUCAGCAACCACA | 0.518
AUUCUCAGCCCAGUGGGCCUCAGCUGCCUUUGGUAGGUUCCAUCCCUUAGCCAUUCCCACCCAUCUGUAACAAUGAUCUGGGAGCUCGGCUCCAAGCAUCCCUGGUUACC | 2.07
AGAACAGACUUACUGAAGUUUAGGUAUAGUGAGCCACACUCCACUGCCAAGGUAGAGAACUGUGAGUGACUGUUGGUGUGGUGAAGGGUGUUGACCAUGCAGGGAAGUGG | 0.895
AAUUACCACUAAUUUACCUGGCAGUGAUGUCAAAUUGACUGUAAUUAGCAGGUAGAAAAUUAUUUGUAUUAUAUUCAUCUGAUUCCUAUACUGGAUGAGCAAGGAGCAUG | 0.413
CCUGUGGUGCUAAAGUACAGUAGAAAGAUGUGUAUACGUUUUAUUUUAAAUUGUACGAAGGGGAAUUUAAAAAUACGUAACUGCUGUUUAUACAUCAGCUCCUUACUGCU | 0.408
AAGGUCCUACCAUCUUAUAUGUGACAUAGUUGUGUCCAGACUCCAGGCCUCUCCUGCUCAGUCUAGCUCUACAAAGUUCUGUAAAAGACUGGUCCGCAUAUAUAAAGGUC | 0.287
UUACCAGCCUUUCUGAUUCUUUUUUAGCUCCCCGAUUGUCUACCCCGCAUCCCUGGUCACAUGCCCACUCUAUUCCCUUACCAUGGUCACGGCCUCUGCAACAGGGCCCU | 0.795
CCCCGUGGAGCCUCAGUGCCCGUUUGGCCUGCUGCUCUCGCUGACAAUAAAGAGCCCUUGCGUUGCACUGAAGCCUGUGUUUGGUAUGAGGGUGCCAUCGGGAAGGGCGC | 1.46
CUUAGUCUCAAGGGCUAGCAUCCCUGAGGAGCCAGGCCGGGCCGAAUCCCCUCCCUGUCAAAGCUGUCACUUCGCGUGCCCUCGCUGCUUCUGUGUGUGGUGAGCAGAAG | 0.569

Study 2
Target: Prothrombin, mature alpha-thrombin (F2, Homo sapiens, UniProt P00734)
Technique: aptamer microarray, sandwich
Molecule type: DNA with 2'F-ANA
Matrix: in vitro
Tested at: 200 nM
Notes: whole 15-mer aptamer, many near background
Together with: Cy3 exosite-II aptamer, 400 nM
Direction: higher = stronger binding
Sequence: GGTTGGTGTGGTTGG
Modification | mean fluorescence intensity [a.u.]
2'F-ANA at 1 2 7 | 168
2'F-ANA at 1 4 5 6 7 8 9 11 12 14 | 46.2
2'F-ANA at 1 3 4 5 8 10 11 12 14 15 | 62.6
2'F-ANA at 1 7 8 9 11 14 15 | 63.4
2'F-ANA at 1 2 5 6 8 11 13 14 15 | 50.1
2'F-ANA at 1 5 7 8 9 13 14 15 | 45.9
2'F-ANA at 3 7 9 10 11 12 14 | 453
2'F-ANA at 1 2 3 4 5 7 10 11 | 46.7
2'F-ANA at 2 3 4 6 7 10 11 12 13 15 | 244
2'F-ANA at 3 7 11 13 14 15 | 740
2'F-ANA at 2 3 7 8 9 12 13 14 15 | 458
2'F-ANA at 3 8 12 14 15 | 783
2'F-ANA at 3 6 7 9 10 11 14 15 | 357
2'F-ANA at 1 2 3 5 6 7 8 11 | 66.8
2'F-ANA at 2 4 5 6 7 8 9 11 12 13 14 15 | 50.8
2'F-ANA at 1 2 3 4 7 9 12 14 15 | 68.8
2'F-ANA at 1 3 4 5 6 7 9 11 12 14 | 114
2'F-ANA at 3 5 6 7 8 11 12 13 14 | 58.8
2'F-ANA at 1 3 4 5 7 10 11 13 15 | 49.5
2'F-ANA at 2 3 4 5 6 7 8 10 11 | 54.6
2'F-ANA at 1 4 5 6 8 10 11 12 15 | 64.3
2'F-ANA at 2 3 6 7 8 12 13 | 1050
2'F-ANA at 1 5 6 8 9 10 13 | 89
2'F-ANA at 1 4 6 9 10 11 13 14 15 | 50.8
2'F-ANA at 1 4 9 14 15 | 48.7

Study 3
Target: Transcriptional repressor CTCF (CTCF, Homo sapiens, UniProt P49711, residues 1-727, full length assumed)
Technique: protein-binding microarray
Molecule type: double-stranded DNA, one strand shown
Matrix: in vitro
Tested at: not given
Notes: k-mer, scored over probes, only values ≥0.25
Direction: higher = stronger binding
Target sequence (chain): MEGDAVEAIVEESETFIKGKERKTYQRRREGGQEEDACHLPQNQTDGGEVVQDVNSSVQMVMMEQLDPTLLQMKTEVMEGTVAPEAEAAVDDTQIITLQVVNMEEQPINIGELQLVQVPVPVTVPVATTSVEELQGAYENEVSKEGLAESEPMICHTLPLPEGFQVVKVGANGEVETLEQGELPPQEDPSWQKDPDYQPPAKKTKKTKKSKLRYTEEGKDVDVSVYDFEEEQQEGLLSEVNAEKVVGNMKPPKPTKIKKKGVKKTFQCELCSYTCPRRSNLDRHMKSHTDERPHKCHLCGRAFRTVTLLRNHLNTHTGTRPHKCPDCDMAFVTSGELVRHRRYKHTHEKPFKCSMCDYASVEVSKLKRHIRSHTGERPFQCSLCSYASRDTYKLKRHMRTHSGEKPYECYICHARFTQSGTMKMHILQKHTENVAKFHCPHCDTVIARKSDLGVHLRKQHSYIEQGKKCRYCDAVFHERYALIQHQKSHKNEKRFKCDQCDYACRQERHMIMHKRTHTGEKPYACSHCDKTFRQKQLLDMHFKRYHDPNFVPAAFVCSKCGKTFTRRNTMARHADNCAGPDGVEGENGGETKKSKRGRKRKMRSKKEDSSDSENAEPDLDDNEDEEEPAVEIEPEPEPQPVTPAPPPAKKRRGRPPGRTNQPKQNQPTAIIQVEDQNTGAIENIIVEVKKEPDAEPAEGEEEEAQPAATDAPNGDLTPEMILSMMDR
Sequence | E-score
TATAAATA | 0.306
CTACAATA | 0.26
TAATGCTA | 0.311
GGCGCACA | 0.394
ATAGCGCG | 0.269
ATATATAC | 0.332
AACCCATA | 0.293
ATAAAGTA | 0.293
AACGTATA | 0.272
GTTTATTA | 0.252
ACAGCGCC | 0.387
CATTACAC | 0.263
ATATTTAA | 0.362
ATATACAA | 0.321
AGTCGACT | 0.255
AACACAAC | 0.262
CGCCGCGC | 0.271
ATTTAAAT | 0.281
AATTGCAT | 0.28
AATTTACT | 0.253
TATGTTGA | 0.305
ACATGCAA | 0.269
GCCAAATA | 0.256
ATGCGCTG | 0.27
CATTTTAC | 0.354

Study 4
Target: Histone acetyltransferase KAT6A, both winged helices, GST fusion (KAT6A, Homo sapiens, UniProt Q92794, residues 1-181)
Technique: protein binding microarray
Molecule type: double-stranded DNA, one strand shown
Matrix: in vitro
Tested at: not given
Notes: 8-mer, flanks averaged, mean of 2 arrays, mostly near background
Baseline: not given
Direction: higher = stronger binding
Residues (chain): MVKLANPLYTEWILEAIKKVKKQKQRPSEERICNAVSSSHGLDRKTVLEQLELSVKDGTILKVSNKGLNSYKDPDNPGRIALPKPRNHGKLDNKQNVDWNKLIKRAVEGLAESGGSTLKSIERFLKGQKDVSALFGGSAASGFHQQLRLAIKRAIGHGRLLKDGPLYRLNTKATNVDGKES
Sequence | E-score
AAGCCAGG | -0.199
CCCATAGA | -0.286
AAAGGCGA | -0.0518
CCTCTAAA | -0.134
TAGAGAGA | -0.216
GTGACGCA | 0.132
AATGGTCA | -0.165
AGTCAGTA | 0.0251
AGAAGAGG | -0.0398
GTCCCTCA | -0.165
ACCTCCCT | -0.233
AGCGTTCA | -0.0459
CACATAGG | -0.167
ATGCATTC | -0.104
CGTCGTAA | -0.0299
CACTCTGG | -0.223
ACCGGAGT | 0.186
CCCAGGGG | -0.212
CTTGCGGC | 0.162
CAGAGAGC | -0.121
CCTGATTC | -0.168

Study 5
Target: RING finger protein unkempt homolog, zinc fingers 1-6, GST-SBP tag (UNK, Homo sapiens, UniProt Q9C0B0, residues 30-357)
Chain of UniProt Q9C0B0 (30-357, looked up): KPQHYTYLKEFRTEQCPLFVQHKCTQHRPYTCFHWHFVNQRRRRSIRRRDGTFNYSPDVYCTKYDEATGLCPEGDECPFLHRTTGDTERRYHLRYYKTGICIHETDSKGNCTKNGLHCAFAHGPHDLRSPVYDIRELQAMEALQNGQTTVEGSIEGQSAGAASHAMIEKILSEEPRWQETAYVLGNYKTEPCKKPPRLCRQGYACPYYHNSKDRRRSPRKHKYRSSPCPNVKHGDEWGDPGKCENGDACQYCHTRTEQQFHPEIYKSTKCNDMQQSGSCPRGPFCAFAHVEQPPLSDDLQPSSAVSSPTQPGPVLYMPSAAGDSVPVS
Technique: RNA Bind-n-Seq
Molecule type: RNA
Matrix: in vitro
Tested at: not given
Notes: RNA with constant flanks, ends assumed
Baseline: input RNA pool
Direction: higher = stronger binding
Constant ends, left off below: GGGAGUUCUACAGUCCGACGAUC … CAACAGAGGAUUGAGCAUCA
Sequence | bound/input enrichment [ratio]
AUUUUUUAUGUAGGUGAGCUAACACAGUGUAUCUAAUUGAAGAAUUCUGAUUAAUUUGUAACCGAUAAGUUGUAUAAAAUUUUCAUACCUUAAAGUGUUUUAGAUUACUCUUCAAGUGAA | 0.328
AGGCACUAUCUCAUUCAUACUGGUCAAAAGCCAUUUGAAUGUGAUGUGUGUCAUAAAACCUUCCGACAACUAGUUCAUCUGGAGAGGCAUCAACUAACUCAUAGUCUGCCUUUUAAAUGU | 0.128
GAAGGACUGUAAUCAUAAUAAGCUCACUACUUGGCUAUUGUUUUUGUUUUAAUAUUCAACUACCGCCGUGUUUUAAAAAAAGUUAAAUGAAGAAUAAACACAAAUAUAAAAGCUCUGACU | 0.26
CCCUCUGUCUGUGACACCACCAUUCCUCUGCUGCCACCCUUUCAGGAAGUCUAUGGUUUUCCGUUUAAAUUAAAGGAAUUGUUACUGUGGUGGGAAUAUGAAAUAAAGGAAGAAAAGGCC | 0.434
GUUUAUUCUCAGAGCACUGCUCUCACUCAUAAGCAGUCUUAUUAUUCCAUUGCCAAAUGUGCCGCUGCCCUUACUCGAGCUUGCCCUAAAGAGGGACCCGCCGUAGUAGGUCAGUUUAUU | 0.32
AACAACAUCAAGGAAGUACUUCUGUUUCCUGCCAUGAAACCCGAAGACAAGAAGGAGAAUGCCGCAACCACUGAUACACUGGAAAGCACAACAGUUGGCACUUCUGUCUAGAAAAUAAUA | 0.279
GAGCAAGAAUUUCAAACAUGCCUGACAAUCUGAUCUCUCUUGAAAUAAAGAGGGAUGCCAUCCGUCCCGACGUCGUUGUGAAAUCCUUGAGAUAUAAAGUGUGACUGGGUGUUUUCAAGA | 0.211
GUUUUUUUUCUCUAUGAAUAAAUGUCACUUUUUGAGGCAAAAAGAAGGAACCGUGAACAUUUCCGACACCCUUUUCUUUGGGGUAGGCUCUGCCCCAGGCGCCGUCUCCUUCCCCCCCCA | 0.904

A few entries again (study 1):
Sequence | RBNS enrichment (R)
CCUGUGGUGCUAAAGUACAGUAGAAAGAUGUGUAUACGUUUUAUUUUAAAUUGUACGAAGGGGAAUUUAAAAAUACGUAACUGCUGUUUAUACAUCAGCUCCUUACUGCU | 0.408
UGAGCCAUCGAUAAGCCCCUAAAAUGCGGAUUAUAAAAUUGCCAAAUAUCCUUUCUCAUGGAAGUGCAUACCUGCGUGUGGAGAAGCUGAGGAGUGAAAACCAUGCAAGU | 0.402
CUUAGUCUCAAGGGCUAGCAUCCCUGAGGAGCCAGGCCGGGCCGAAUCCCCUCCCUGUCAAAGCUGUCACUUCGCGUGCCCUCGCUGCUUCUGUGUGUGGUGAGCAGAAG | 0.569
AUUCUCAGCCCAGUGGGCCUCAGCUGCCUUUGGUAGGUUCCAUCCCUUAGCCAUUCCCACCCAUCUGUAACAAUGAUCUGGGAGCUCGGCUCCAAGCAUCCCUGGUUACC | 2.07
AAGGUCCUACCAUCUUAUAUGUGACAUAGUUGUGUCCAGACUCCAGGCCUCUCCUGCUCAGUCUAGCUCUACAAAGUUCUGUAAAAGACUGGUCCGCAUAUAUAAAGGUC | 0.287
GCUAUCAUGGUUGUGUUAAUCGAUUGUGGGGAUGAAAUGUCAUUGUGUAUGGAAGGCGGGGCUCAUGGCUGAUUGGCAAUAAAAUGGCGGCUGCCGUUGUCAUUGUCUCC | 0.979
AACCCUGGCUGGACUGGAGCUCAGUGUAUAGACCAGGCUAGUCUCAAACUCUGCCUCUUCCUCCCAAGUGCUGGGAUUAAGGGCAGGUACCAUAGUGCUCAGCAACCACA | 0.518
UUACCAGCCUUUCUGAUUCUUUUUUAGCUCCCCGAUUGUCUACCCCGCAUCCCUGGUCACAUGCCCACUCUAUUCCCUUACCAUGGUCACGGCCUCUGCAACAGGGCCCU | 0.795
